Results collected from several papers.
Each numbered part is a random draw from the data of one study; scales do not carry over between parts. Several values in a cell are separate wells, animals, samples, runs or records. Changes are numbered by the printed parent chain.
Chain of UniProt Q9BYT3 (whole entry, looked up): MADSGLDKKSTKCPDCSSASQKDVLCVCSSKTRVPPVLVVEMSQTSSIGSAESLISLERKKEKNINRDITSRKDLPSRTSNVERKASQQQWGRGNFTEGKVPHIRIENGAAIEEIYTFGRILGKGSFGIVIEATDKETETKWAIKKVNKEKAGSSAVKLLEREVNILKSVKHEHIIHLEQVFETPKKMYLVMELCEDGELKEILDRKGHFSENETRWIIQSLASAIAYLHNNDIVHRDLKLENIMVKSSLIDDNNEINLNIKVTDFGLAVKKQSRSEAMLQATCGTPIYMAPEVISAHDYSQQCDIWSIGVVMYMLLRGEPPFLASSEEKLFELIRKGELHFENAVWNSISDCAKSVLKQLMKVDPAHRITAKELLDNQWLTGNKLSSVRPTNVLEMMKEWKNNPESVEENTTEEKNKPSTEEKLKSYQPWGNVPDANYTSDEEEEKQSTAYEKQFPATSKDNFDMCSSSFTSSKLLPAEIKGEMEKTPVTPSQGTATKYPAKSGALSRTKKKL

Set 1
Target: TAR DNA-binding protein 43, full length, His tag (TARDBP, Homo sapiens, UniProt Q13148, residues 1-414)
Technique: RNA Bind-n-Seq
Form: RNA
Matrix: in vitro
Tested at: 20 nM
Notes: 6-mer, flanks averaged, single round
Added: 150 mM LiCl
Reference: input library
Reading: higher = stronger binding
Quantity: 6-mer enrichment (R)
ACUUGG: 0.943
AAGUAA: 0.863
GCUUUC: 0.92
GGUGUG: 2.24
GUGCGC: 1.19
CGUCUG: 0.922
CGCGGA: 0.984
CUAAUU: 0.957

Set 2
Target: CCNB2, cyclin fold, Cln2 fusion (human)
Technique: yeast growth competition, sequencing
Matrix: yeast
Notes: weak parent motif
Reference: not given
Reading: higher = stronger binding
Quantity: normalised enrichment score
Starting sequence: viral docking peptide; KGVKRKLFAEDSS
V3T: 0.247
R5P: -0.27
F8E: 0.838
G2Y: 0.289
A9K: 0.532
D11Q: 0.136
F8L: 0.433
E10P: 0.987
E10Y: 0.15
V3I: 1.01
F8W: 0.231
A9V: 1.09
S12P: 1.14
E10F: 0.577
L7P: 0.372
L7V: 0.525
F8I: 0.416
F8K: 0.497

Set 3
Target: PABPC1L2, full length, GST fusion (mouse, UniProt A0ABA7IW68)
Technique: RNAcompete
Form: RNA
Matrix: in vitro
Tested at: 20 nM
Notes: 7-mer, probes averaged, single round
Reference: mean of 7-mers
Reading: higher = stronger binding
Quantity: 7-mer Z-score
Residues (chain): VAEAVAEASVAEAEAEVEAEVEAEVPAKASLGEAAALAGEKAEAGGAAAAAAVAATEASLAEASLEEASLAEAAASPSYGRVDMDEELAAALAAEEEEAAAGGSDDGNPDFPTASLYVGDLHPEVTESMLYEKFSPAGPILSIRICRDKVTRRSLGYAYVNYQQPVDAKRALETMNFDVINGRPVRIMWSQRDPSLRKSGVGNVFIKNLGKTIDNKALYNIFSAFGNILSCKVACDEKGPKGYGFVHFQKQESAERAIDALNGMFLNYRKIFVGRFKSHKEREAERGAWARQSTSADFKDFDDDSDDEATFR
CAAUCCG: -0.22
UUGUGGA: 0.108
UGUAAUC: -0.195
CCUCCGA: -0.322
GUGGAGA: 0.0968
ACCCUUG: -0.217
CCAUGAU: -0.146
CUAGUUC: -0.414

Mixed results
CC(C)S(=O)(=O)c1ccc2nccc(Nc3ccc4scnc4c3)c2c1 — viability (L929; necroptosis protection, CCK-8; 1.25 µM, added: TNF-α plus zVAD): 34.7%
PhoQ, residues 284 288 289 292 302 303 GASLAW — fold induction (PhoP, residues 12 14 15 18 19 HEGLL (Escherichia coli, UniProt P23836); Sort-seq, refers to: YFP reporter; E. coli; PhoQ-PhoP variant library, added: 10 µM Mg2+; reference: high Mg2+ state, higher = stronger signaling): 0.836
CC(C)(C)c1nc(-c2cccc(NS(=O)(=O)c3c(F)cccc3F)c2F)c(-c2ccnc(N)n2)s1 — viability (L929; CCK-8; 25 µM, added: zVAD): 64.9% and 69.1% and 66.9% and 66.3% and 66.8%
c1ccc2c(-c3ccncc3)c[nH]c2c1 — remaining activity (Serine/threonine-protein kinase 33 (STK33, Homo sapiens, UniProt Q9BYT3); enzyme activity, inhibitor, radiometric; 0.5 µM): 97.3%
CC[C@H](C)c1nc2cc(Nc3ccnc4ccc(S(=O)(=O)C(C)C)cc34)ccc2s1 — viability (L929; necroptosis protection, CCK-8; 1.25 µM, added: TNF-α plus zVAD): 36.8%
Cc1ccc(O)cc1Nc1ccnc2cc(-c3ccccn3)ccc12 — viability (L929; necroptosis protection, CCK-8; 10 µM, added: TNF-α-induced): 55.3%
